Results collected from several papers.
Parts stem from different laboratories: compare values within a part only. Several values in a cell are separate wells, animals, samples, runs or records.
Sequence of UniProt P9WI81 (whole entry, looked up): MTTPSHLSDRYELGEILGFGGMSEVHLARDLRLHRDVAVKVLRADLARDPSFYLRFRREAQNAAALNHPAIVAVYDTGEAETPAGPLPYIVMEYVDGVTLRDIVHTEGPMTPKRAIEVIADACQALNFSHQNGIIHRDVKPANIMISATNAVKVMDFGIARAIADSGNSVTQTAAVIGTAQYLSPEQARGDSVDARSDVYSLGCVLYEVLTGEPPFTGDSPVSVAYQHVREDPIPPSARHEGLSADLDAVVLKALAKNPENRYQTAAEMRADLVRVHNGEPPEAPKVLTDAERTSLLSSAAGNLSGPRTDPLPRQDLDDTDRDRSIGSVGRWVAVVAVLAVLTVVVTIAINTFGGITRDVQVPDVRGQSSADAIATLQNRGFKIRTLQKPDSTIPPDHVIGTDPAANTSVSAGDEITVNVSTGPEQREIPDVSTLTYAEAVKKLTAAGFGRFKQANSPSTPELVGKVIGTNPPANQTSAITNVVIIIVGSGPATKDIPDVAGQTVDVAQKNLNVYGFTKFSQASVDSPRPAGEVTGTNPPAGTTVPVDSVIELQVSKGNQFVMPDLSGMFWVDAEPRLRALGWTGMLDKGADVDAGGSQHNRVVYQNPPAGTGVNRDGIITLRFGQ

Study 1
Cell line: mouse MPNST tumor cells
Technique: high-content immunofluorescence imaging
Item: nuclear SOX9
Concentration: 10 µM
Time: 12 h
Setting: mean of 2 replicates
Baseline: DMSO control
Direction: higher = more nuclear SOX9
| Structure (SMILES) | nuclear SOX9 intensity |
| --- | --- |
| COc1cc2c(c(OC)c1OC)-c1ccc(OC)c(=O)cc1[C@@H](NC(C)=O)CC2 | 215 % of DMSO |
| Nc1ncnc2c1ccn2[C@@H]1O[C@H]([C@H](O)c2ccccc2)[C@@H](O)[C@H]1O | 105 % of DMSO |
| CC(=O)O[C@H]1C[C@H](O[C@H]2[C@@H](O)C[C@H](O[C@H]3[C@@H](O)C[C@H](O[C@H]4CC[C@@]5(C)[C@H](CC[C@@H]6[C@@H]5C[C@@H](O)[C@]5(C)[C@@H](C7=CC(=O)OC7)CC[C@]65O)C4)O[C@@H]3C)O[C@@H]2C)O[C@H](C)[C@H]1O[C@@H]1O[C@H](CO)[C@@H](O)[C@H](O)[C@H]1O | 105 % of DMSO |
| CN[C@@H]1[C@@H](O)[C@@H](O[C@@H]2[C@@H](O)[C@H](O[C@H]3O[C@H](CN)CC[C@H]3N)[C@@H](N)C[C@H]2N)OC[C@]1(C)O.CN[C@@H]1[C@@H](O)[C@@H](O[C@@H]2[C@@H](O)[C@H](O[C@H]3O[C@H]([C@@H](C)N)CC[C@H]3N)[C@@H](N)C[C@H]2N)OC[C@]1(C)O.CN[C@@H]1[C@@H](O)[C@@H](O[C@@H]2[C@@H](O)[C@H](O[C@H]3O[C@H]([C@@H](C)NC)CC[C@H]3N)[C@@H](N)C[C@H]2N)OC[C@]1(C)O | 104 % of DMSO |
| COC(=O)[C@@H](N)CCCNC(=N)N[N+](=O)[O-] | 94.1 % of DMSO |

Study 2
Cell line: HEK-293T/ACE2
Concentration: concentration not given
Time: 16 (unit not given)
Baseline: vehicle
| SMILES | viability |
| --- | --- |
| C[C@H]1C[C@H]2[C@@H]3CCC4=CC(=O)C=C[C@]4(C)[C@@]3(F)[C@@H](O)C[C@]2(C)[C@@]1(O)C(=O)CO | 99.6% |
| OC[C@@H](O)[C@@H](O)[C@H](O)[C@H](O)CO | 97.8% |
| CCN(CC)CCCC(C)Nc1ccnc2cc(Cl)ccc12 (stereo not shown) | 104% |
| CCOC(=O)C1=C(C)NC(C)=C(C(=O)OC)C1c1cccc(Cl)c1Cl (stereo not shown) | 94.1% |
| CC1(C)S[C@@H]2[C@H](NC(=O)[C@H](NC(=O)N3CCNC3=O)c3ccccc3)C(=O)N2[C@H]1C(=O)O | 98.8% |
| C#C[C@]1(O)CC[C@H]2[C@@H]3CCC4=CC(=O)CC[C@@H]4[C@H]3CC[C@@]21C | 99.5% |
| CC(=O)OCC(COC(C)=O)OC(C)=O | 97.7% |
| COc1ccnc(C[S+]([O-])c2nc3ccc(OC(F)F)cc3[nH]2)c1OC (stereo not shown) | 102% |
| CC(=O)Nc1ccc(O)cc1 | 91.1% |

Study 3
Target: DNA polymerase theta, ATPase domain (POLQ, Homo sapiens, UniProt O75417)
Sequence of UniProt O75417 (whole entry, unmodified, looked up): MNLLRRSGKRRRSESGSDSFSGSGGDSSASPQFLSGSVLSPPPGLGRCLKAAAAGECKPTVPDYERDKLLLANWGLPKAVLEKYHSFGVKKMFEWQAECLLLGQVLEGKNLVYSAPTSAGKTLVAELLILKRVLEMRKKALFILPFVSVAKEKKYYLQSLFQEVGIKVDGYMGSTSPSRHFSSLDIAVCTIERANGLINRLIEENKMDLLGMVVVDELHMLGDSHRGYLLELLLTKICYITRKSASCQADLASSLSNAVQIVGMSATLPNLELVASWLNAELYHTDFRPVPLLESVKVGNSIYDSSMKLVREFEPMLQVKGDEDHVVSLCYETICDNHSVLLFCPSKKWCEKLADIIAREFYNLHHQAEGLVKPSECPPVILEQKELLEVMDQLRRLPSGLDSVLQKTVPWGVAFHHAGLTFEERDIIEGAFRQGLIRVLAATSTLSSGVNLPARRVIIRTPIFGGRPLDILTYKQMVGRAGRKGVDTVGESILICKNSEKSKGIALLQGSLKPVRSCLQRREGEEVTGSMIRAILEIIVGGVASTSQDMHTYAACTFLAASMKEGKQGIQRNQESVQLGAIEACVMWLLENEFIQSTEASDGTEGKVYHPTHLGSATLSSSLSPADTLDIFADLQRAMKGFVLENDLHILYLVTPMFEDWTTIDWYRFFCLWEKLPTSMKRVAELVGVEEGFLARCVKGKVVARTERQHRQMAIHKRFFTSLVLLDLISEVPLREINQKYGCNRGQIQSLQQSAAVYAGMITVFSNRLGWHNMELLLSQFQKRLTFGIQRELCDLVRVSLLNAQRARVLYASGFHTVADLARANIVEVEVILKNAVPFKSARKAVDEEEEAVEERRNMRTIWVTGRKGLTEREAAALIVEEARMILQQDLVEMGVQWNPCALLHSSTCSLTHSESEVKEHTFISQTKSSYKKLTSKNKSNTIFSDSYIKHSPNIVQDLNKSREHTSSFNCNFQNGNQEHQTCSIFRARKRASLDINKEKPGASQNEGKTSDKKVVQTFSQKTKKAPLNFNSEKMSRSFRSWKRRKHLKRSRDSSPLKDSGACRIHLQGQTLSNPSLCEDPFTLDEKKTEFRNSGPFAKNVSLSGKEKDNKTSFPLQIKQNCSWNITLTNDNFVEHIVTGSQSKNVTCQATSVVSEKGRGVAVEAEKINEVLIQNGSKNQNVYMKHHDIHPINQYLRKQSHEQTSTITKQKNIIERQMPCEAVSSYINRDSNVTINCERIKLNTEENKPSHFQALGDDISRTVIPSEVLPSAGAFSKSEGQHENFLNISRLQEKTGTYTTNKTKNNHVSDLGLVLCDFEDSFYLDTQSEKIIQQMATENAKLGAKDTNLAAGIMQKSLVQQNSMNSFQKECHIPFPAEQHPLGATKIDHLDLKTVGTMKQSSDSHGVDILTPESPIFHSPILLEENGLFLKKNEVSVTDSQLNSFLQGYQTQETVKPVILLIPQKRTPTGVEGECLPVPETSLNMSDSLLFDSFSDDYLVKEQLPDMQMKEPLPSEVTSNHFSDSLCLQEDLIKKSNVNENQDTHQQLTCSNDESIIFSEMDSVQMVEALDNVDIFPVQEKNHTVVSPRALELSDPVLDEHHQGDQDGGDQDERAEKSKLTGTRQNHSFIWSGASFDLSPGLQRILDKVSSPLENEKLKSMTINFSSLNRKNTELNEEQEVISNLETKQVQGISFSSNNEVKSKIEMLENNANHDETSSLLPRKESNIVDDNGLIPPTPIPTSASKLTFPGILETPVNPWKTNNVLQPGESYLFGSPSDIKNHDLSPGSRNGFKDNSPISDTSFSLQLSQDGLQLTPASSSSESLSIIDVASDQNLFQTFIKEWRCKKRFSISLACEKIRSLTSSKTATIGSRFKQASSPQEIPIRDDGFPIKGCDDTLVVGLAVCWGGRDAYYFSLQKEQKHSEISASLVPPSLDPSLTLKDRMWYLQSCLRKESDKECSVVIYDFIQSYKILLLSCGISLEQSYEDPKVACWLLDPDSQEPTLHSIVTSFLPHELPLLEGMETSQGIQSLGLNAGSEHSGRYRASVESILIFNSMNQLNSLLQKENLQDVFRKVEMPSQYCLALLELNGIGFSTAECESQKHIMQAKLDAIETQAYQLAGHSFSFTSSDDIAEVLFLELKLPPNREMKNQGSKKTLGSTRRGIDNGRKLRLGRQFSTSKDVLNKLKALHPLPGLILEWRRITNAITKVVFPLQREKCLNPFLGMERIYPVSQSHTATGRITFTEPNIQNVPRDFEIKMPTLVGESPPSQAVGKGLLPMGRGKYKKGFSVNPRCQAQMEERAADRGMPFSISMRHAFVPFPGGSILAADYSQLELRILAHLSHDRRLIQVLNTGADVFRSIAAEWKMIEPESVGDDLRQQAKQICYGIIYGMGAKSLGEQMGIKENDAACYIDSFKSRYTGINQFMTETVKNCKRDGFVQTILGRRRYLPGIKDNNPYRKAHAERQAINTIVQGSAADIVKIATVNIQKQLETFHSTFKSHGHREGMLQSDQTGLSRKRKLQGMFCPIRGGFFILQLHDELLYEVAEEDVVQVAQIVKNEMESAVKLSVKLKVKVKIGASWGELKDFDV
Effect on: enzyme activity
Mode: inhibitor
Concentration: 77 µM
Baseline: untreated
| SMILES | remaining activity |
| --- | --- |
| O=P1(NCCCl)OCCCN1CCCl (stereo not shown) | 98.2% and 101% |
| O=C(N[C@H]1CN2CCC1CC2)c1cc2ccoc2cn1 | 101% |
| C[C@H](N)[C@H](O)c1ccccc1 | 94.5% |
| CN(C)[C@@H]1C(=O)C(C(N)=O)=C(O)[C@@]2(O)C(=O)C3=C(O)c4c(O)cccc4[C@@](C)(O)[C@H]3C[C@@H]12 | 95.5% |
| CC(NC(C)(C)C)C(=O)c1cccc(Cl)c1 (stereo not shown) | 104% |

Study 4
Target: 5-hydroxytryptamine receptor 2C (HTR2C, Homo sapiens, UniProt P28335)
Sequence of UniProt P28335 (whole entry, looked up): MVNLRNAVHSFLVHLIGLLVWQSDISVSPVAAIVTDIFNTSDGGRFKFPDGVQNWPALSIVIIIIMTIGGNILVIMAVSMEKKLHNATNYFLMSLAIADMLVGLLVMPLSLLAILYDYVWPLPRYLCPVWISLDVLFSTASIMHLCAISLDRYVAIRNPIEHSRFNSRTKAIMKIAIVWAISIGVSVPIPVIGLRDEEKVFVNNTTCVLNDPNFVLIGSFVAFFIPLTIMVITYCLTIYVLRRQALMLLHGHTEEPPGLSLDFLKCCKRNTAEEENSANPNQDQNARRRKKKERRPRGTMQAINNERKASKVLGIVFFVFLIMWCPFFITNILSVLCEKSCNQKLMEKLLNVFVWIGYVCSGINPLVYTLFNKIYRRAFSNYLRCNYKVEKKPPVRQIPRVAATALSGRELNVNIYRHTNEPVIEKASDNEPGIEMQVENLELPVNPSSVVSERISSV
Effect on: ligand displacement
Concentration: 10 µM
| Compound | inhibition |
| --- | --- |
| CN1CCN(c2cnc3c(C4CCN(C(=O)c5ccc(OC(F)(F)F)cc5N)CC4)ncnc3c2)CC1 | -4.77% |
| CN1CCN(C(=O)C(C)(C)c2ccc(C(=O)Nc3cn4cc(-c5cc(C(C)(C)C)cc(C(C)(C)C)c5)ccc4n3)cc2)CC1 | 83% |
| Cc1c(NC(=O)c2cc(C(N)=O)nc3cc(F)ccc23)c(C(F)(F)F)nn1Cc1ccc(C#N)cc1 | 6.9% |
| CN(c1ccnc(CNc2nc(Nc3ccc4c(c3)CC(=O)N4)ncc2C(F)(F)F)n1)S(C)(=O)=O | 8.11% |
| CNC(=O)Nc1ccc2c(c1)CC[C@]21OC(=O)N(CC(=O)N(Cc2ccc(F)cc2)[C@@H](C)C(F)(F)F)C1=O | 16.5% |
| CC1=C(C#N)C(c2ccc3c(c2)c(NC(=O)c2ccccc2C)nn3C)C(C#N)=C(C)N1 | 22.5% |
| NS(=O)(=O)c1cc(NC(=O)Cc2ccccc2)ccc1Oc1cccc(Cl)c1 | 55.4% |
| COCc1nc2cnc3cc(-c4c(C)noc4C)c(OC[C@H]4CCNC4)cc3c2n1[C@H](C)c1ccccc1 | -0.02% |
| O=C(NNS(=O)(=O)c1ccccc1F)c1cc(F)cc(-c2ccccn2)c1 | 6.46% |
| C[C@@H](NC(=O)Nc1cc2[nH]ncc2c(CO)n1)c1ccccc1 | 26.3% |
| Cc1noc([C@H]2C[C@@H](c3ccc(C(F)(F)F)cc3)CN(C(=O)N3CCS(=O)(=O)C3)C2)n1 | 37.1% |
| COc1cc(C(=O)O)ncc1C#Cc1ccccc1NS(=O)(=O)c1cccc2c(N(C)C)ccnc12 | 7.95% |
| O=C1c2ccc(Nc3ccc(F)cc3F)cc2CCc2ccc(OC[C@H](O)CO)cc21 | 24% |
| CC(C)(C)OC(=O)N1CCCC1CNC1CCC(c2cc(F)ccc2F)(S(=O)(=O)c2ccc(Cl)cc2)CC1 (stereo not shown) | 80.9% |
| Cc1cc2c(-c3ccco3)cnc(N[C@H]3CCN(C)C[C@@H]3C(=O)NC3CCCCC3)c2[nH]c1=O | 3.86% |
| CCC(F)(F)c1cc(N2CCC(S(C)(=O)=O)CC2)nc2sc(C(N)=O)c(N)c12 | -5.41% |
| N#CC1(c2ccccn2)CCN(Cc2cc(C(=O)N3CCCC3)c(=O)n3ccccc23)CC1 | -2.49% |
| Nc1nc(NCc2ccccc2)nc(-c2cccc(CO)c2)n1 | 3.72% |
| CN1CCN(c2ccnc(NCCc3ccccc3)n2)CC1 | 94.8% |
| CS(=O)(=O)c1cc(C2(NC(=O)c3cncc4c3cnn4-c3ccc(F)cc3)CC2)ccn1 | -14.7% |

Mixed results
| Structure (SMILES) | target | effect on | concentration | quantity | result |
| --- | --- | --- | --- | --- | --- |
| COc1ccc2[nH]c3c4[nH]c5ccc(OC)cc5c4c4c(c3c2c1)C(=O)NC4=O | Serine/threonine-protein kinase PknB (pknB, Mycobacterium tuberculosis, UniProt P9WI81) | binding | 1 µM | remaining binding | 67% |
